# Experimental data of several laboratories.
# Parts stem from different laboratories: compare values within a part only.

# Series 1
# Target: Interferon regulatory factor 5, full length, phosphomimetic (IRF5, Homo sapiens, UniProt Q13568-2, residues 1-514, K96S/S451D/S453D/S456D/S462D)
# Method: protein-binding microarray
# Molecule type: double-stranded DNA, one strand shown
# Medium: in vitro
# Concentration: 250 nM
# Notes: 60-bp whole probe
# With: salmon DNA 0.4 mg/ml
# Baseline: random background probes
# Reading: higher = stronger binding
# Shared flanks, not repeated: GCCTAGCAC … GTCTTGATTCGCTTGACGCTGCTG
Sequence,log fluorescence
TCAGCTCTGTTGCCTGGTACTGTGCTA,-0.547 z-score
TTAGGACTGGGACTAGGTTAGTGCTAG,-0.345 z-score
TAAGGTTTCGGTTTCGGTTAGTGCTAG,12 z-score
GACGGACTGGGTATCGGTACGTGCTAG,2.42 z-score
TCAACTTTCTTAATGCTACTGTGCTAG,1.62 z-score
GACGGACCGGGTTTCGGGACGTGCTAG,1.62 z-score
TTTGGTTTCCTTTCCCTTTAGTGCTAG,2.59 z-score

# Series 2
# Target: RNA binding protein fox-1 homolog 2, RRM domain, GST-SBP tag (RBFOX2, Homo sapiens, UniProt O43251-10, residues 100-194)
# Method: RNA Bind-n-Seq
# Molecule type: RNA
# Medium: in vitro
# Concentration: 365 nM
# Notes: natural RNA segment, single round, ends assumed
# Baseline: no-protein control
# Reading: higher = stronger binding
# Shared flanks, not repeated: GGGAGUUCUACAGUCCGACGAUC … UGGAAUUCUCGGGUGCCAA
# Target sequence (chain): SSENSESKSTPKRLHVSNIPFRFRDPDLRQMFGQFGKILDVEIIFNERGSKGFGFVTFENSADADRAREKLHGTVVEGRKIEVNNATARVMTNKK
Sequence,RBNS enrichment (R)
CUUGCCUCCCAGGGAUUUGUGAGCCUUUCCUAGAAGGUCCUGUGCUCUCCUCCUUCUGUCCCCUCCCCUACUGUCUGCUGCCCCUUCCUGGGGAGUUGGUGCUUUCUUUU,1.26
UCUCUCUCCUUCAUGUGCUAUUCUCCUUCCCCAGGCAGAUUGGCAGGGGAAGUGGGAGCAGAUGGCCUGCCUGUGGUUGAGAGGGCUACCUGCCCGACCCCUCCCCCACC,0.749
CAUGUGGCCAGUCCUGUGGGACUUAGGGUCCCAACCUGUAUAUUCUGUCUCAAAGAACAUUAAACUCUUCUGGAACUGGCCCUUGACAGCCUGGGACCAGGGAAACUUUU,0.389
UUUUUCUAUACUGAAUACCCUUUGAGAUUUGUGUGGGACAUGGGUCCAUGUGGGUUUAGUGACAGAGAAGAGUUCCUCCAAGGACUCUUGGAGAGGGGCCACAUCUGAGG,0.469
CCCUUACUCUCUACCAUUUCCUUUAUGUGGGGAAACAUUUUAAGGUAAUAAAUAGGUUACUUACCAUCAUAUGUUCAUAUAGAUGAAACUAAUUUUUGGCUUAAGUCAGA,0.347
CCCAUUACCUAGAUGGCACCUCCUUUGGUGAAACCACGGCCAAUGUUCCUUAGCUGCACCAGGCCCGAAGCUGUUCCCAUGCUUGAGCUUCCAUGGGGAGGAUGCUGAGU,1.09
UGGUCUUCUCUGCAGAGAACUGAGGCUAAACUCUGUCCCUACUUCUGGUUUUGCCCUGUCAUGUCGUAACGAGGUGGGCCUUUUGAGGCCAUUUUAGUUUGAGUUCGAGC,0.443
UUCAGAUCACAAAGCAAACAGUCACCAAGGAUCUGUCUUCCAACUCUUUUUUUUUUCUGCUGAAAUGAAGCUACAUGUCAUGUUUGUGUUCUUUCAUCUGUGGCUCAUCC,0.802

# Series 3
# Target: Histone acetyltransferase KAT6A, both winged helices, GST fusion (KAT6A, Homo sapiens, UniProt Q92794, residues 1-181)
# Method: protein binding microarray
# Molecule type: double-stranded DNA, one strand shown
# Medium: in vitro
# Concentration: not given
# Notes: 8-mer, flanks averaged, mean of 2 arrays, mostly near background
# Baseline: not given
# Reading: higher = stronger binding
# Construct (chain): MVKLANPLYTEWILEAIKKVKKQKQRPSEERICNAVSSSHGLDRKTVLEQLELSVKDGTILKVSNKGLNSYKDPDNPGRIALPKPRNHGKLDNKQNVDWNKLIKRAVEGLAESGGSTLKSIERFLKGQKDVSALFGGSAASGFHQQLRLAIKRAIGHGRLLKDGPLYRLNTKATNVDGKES
Sequence,E-score
ATACTATC,-0.023
CAGTCTGC,-0.119
CATAAGCG,0.156
CTACTAAC,-0.13
CTTTAGTC,-0.114
CTGGGTCA,-0.188
AAGGTGAG,-0.0571
CCGGACTA,0.149

# Further values, each from its own experiment
Molecule,target,assay,test system,conditions,how to read,quantity,value
"PhoQ, residues 284 288 289 292 302 303 NLSRDF","PhoP, residues 12 14 15 18 19 SEGLL (Escherichia coli, UniProt P23836)","Sort-seq, measured: YFP reporter",E. coli,"PhoQ-PhoP variant library, with: 10 µM Mg2+","baseline: high Mg2+ state, higher = stronger signaling",fold induction,10.7

# For quick reference, copied from above (series 3):
Sequence,E-score
CATAAGCG,0.156
